Assay results collected from several papers.
Lines come from different studies, so protocols differ. Several values in a cell are separate wells, animals, samples, runs or records. Numbers after ± are the reported error.

Compound	assay	test system	conditions	scale	endpoint	result
C=C(NC(=O)c1csc(-c2nc3c(cc2O)-c2nc(cs2)C(=O)NC(C(C)O)C(=O)NC(=C(C)OC)c2nc(cs2)C(=O)NC2c4nc(cs4)C(=O)NC(COC(=O)c4c5c6c(cccc6n4O)COC(=O)C(OC4CC(C)(O)C(N(C)C)C(C)O4)C2OC5)c2nc-3cs2)n1)C(N)=O (stereo not drawn)		cynomolgus monkey, female, plasma	intravenous infusion, 9 mg/kg single dose		MRT(0-last)	1.69 h
C=CC(=O)Nc1cc(Nc2nccc(-c3cn(C)c4ccccc34)n2)c(OC)cc1N(C)CCNC		human, plasma	270 ng/mL, 30 d, room temperature, high QC level		remaining compound	19.9%
C/C(N)=N/C(=N\S(=O)(=O)c1ccc(C(F)(F)F)cc1)N1C[C@H](c2ccccc2)C(c2ccc(Cl)cc2)=N1		male C57BL/6 mouse, kidney	intravenous, 10 mg/kg		Tmax	0.25 h
[2H]C1([2H])CC[C@@H](C[C@@H](C#N)NC(=O)[C@@H]2[C@@H]3[C@H](CN2C(=O)[C@@H](NC(=O)C(F)F)C(C)(C)C)C3(C)C)C(=O)N1		mouse liver microsomes	microsomes 0.5 mg/mL		intrinsic clearance	63.8 µL/min/mg
Cc1[nH]nc2c1N=C(c1ccccc1Cl)c1cnc(N3CCOCC3)cc1N2		male beagle dog, plasma	oral, 2 mg/kg		half-life	6.87 h
Cc1c(Cc2ccc(Cl)c(O[C@H](C)C(=O)O)c2)c2ccc(C(=O)N[C@@H](C)c3ccc(C(C)(C)C)cc3)cc2n1CC(C)C	metabolic stability	mouse, liver microsomes			half-life	> 1 h
CN1CCC[C@]1(C)/C=C/S(=O)(=O)NC(=O)Nc1c2c(cc3c1C(O)CC3)CCC2 (stereo partly drawn)		human, plasma	oral, 50 mg twice daily of parent drug, day 1, metabolite of dosed drug		AUC(0-tau)	60100 ng·h/mL
Cl.NCc1ccc2c(c1)CN(C1CCC(=O)NC1=O)C2=O (stereo not drawn)		male Sprague-Dawley rat, whole blood	3 h		remaining compound	80%
CN1CCC[C@]1(C)/C=C/S(=O)(=O)NC(=O)Nc1c2c(cc3c1CCC3)CC=C2		human, plasma	oral, 50 mg twice daily of parent drug, metabolite of dosed drug	reference: day 14 over day 1	AUC(0-tau) accumulation ratio	1.9
O=C(Nc1cnccc1-c1ccc([18F])cc1)c1ccnc(NC(=O)C2CC2)c1	PET imaging	FVB/NJ mice, both sexes, brain	intravenous, 120 min post-injection, P-gp inhibited, with: tariquidar 15 mg/kg iv, 2 h before		median SUV	0.22
CCCC[C@H](OC(C)=O)c1ccccc1C(=O)O		beagle dogs, both sexes, whole blood	intravenous, 5 mg/kg single dose		AUC(0-t)	4690 ± 505 ng·h/mL
CCCCN1C(=O)c2cccc3c(NCCN4CCOCC4)ccc(c23)C1=O		dioxane			absorption maximum	422 nm
CCC(=O)N(C)c1ccc(Cl)c(Cl)c1	LC-MS/MS	mouse C57BL/6 female, plasma	subcutaneous, 2 mg/kg, 0.5 h		plasma concentration	209 ng/mL and 261 ng/mL
O=C(Nc1cnccc1-c1ccc([18F])nc1)c1ccnc(NC(=O)C2CC2)c1		FVB/NJ mouse, both sexes, liver	intravenous, 25 min		SUV	9.75
CC(C)C[C@H](NC(=O)[C@H](CCCNC(=N)N)NC(=O)[C@H](Cc1ccccc1)NC(=O)[C@H](Cc1ccccc1)NC(=O)[C@@H](NC(=O)[C@H](CO)NC(=O)[C@H](CO)NC(=O)[C@H](CC(=O)O)NC(=O)[C@H](CO)NC(=O)[C@H](CO)NC(=O)[C@H](CC(=O)O)NC(=O)[C@H](CO)NC(=O)[C@H](CO)NC(=O)[C@H](CC(=O)O)NC(=O)[C@H](CO)NC(=O)[C@H](CO)NC(=O)[C@H](CC(=O)O)NC(=O)[C@H](CO)NC(=O)[C@H](CO)NC(=O)[C@H](CC(=O)O)NC(=O)[C@H](CO)NC(=O)[C@H](CO)NC(=O)[C@H](CC(=O)O)NC(=O)[C@H](CO)NC(=O)[C@H](CO)NC(=O)[C@H](CC(=O)O)NC(=O)[C@H](CO)NC(=O)[C@H](CO)NC(=O)[C@@H](N)CC(=O)O)[C@@H](C)O)C(=O)N[C@@H](Cc1ccccc1)C(=O)N[C@@H](CC(N)=O)C(=O)N[C@@H](CCCNC(=N)N)C(=O)N[C@@H](C)C(=O)N[C@@H](CCCCN)C(=O)N[C@@H](CCCNC(=N)N)C(=O)N[C@@H](Cc1c[nH]cn1)C(=O)N[C@@H](Cc1c[nH]cn1)C(=O)NCC(=O)N[C@@H](Cc1ccc(O)cc1)C(=O)N[C@@H](CCCCN)C(=O)N[C@@H](CCCNC(=N)N)C(=O)N[C@@H](CCCCN)C(=O)N[C@@H](Cc1ccccc1)C(=O)N[C@@H](Cc1c[nH]cn1)C(=O)O	HPLC-UV	human saliva	1 h, 37 °C, with: initial 1 mg/mL		peptide concentration	0.987 mg/mL
Cc1nc(N)nc2c1C(=O)N[C@@H](c1ccc(F)cc1-c1cccc(OCC[18F])n1)C2	ex vivo biodistribution	C57BL/6 mice, intestines	intravenous, 30 min		uptake	12.6 ± 1.01 %ID
COc1ccc2c(c1)CCn1c[n+]3c(c1-2)-c1ccc(OC)cc1CC3		female NSG mice, blood	6 mg/kg, day 14, 5 days per week		MCHC	33.9 ± 1.52 g/dL
CN(C(=O)C(C)(C)c1cc(C(F)(F)F)cc(C(F)(F)F)c1)c1cnc(N2C[C@H]3COC(O)CN3C[C@H]2CO)cc1-c1ccc(F)cc1CO (stereo partly drawn)		human, plasma	oral, 120 mg, geometric mean		AUC extrapolated	4.67%

Compound	assay	test system	conditions	scale	endpoint	result
CCC[C@H]1CC[C@H](c2ccc(NC(=S)NC[C@@H]3[C@@H](O)[C@@H](O)[C@H]4[C@H](O)CCCN43)cc2)CC1		NOD-SCID mouse, serum	ip, 30 mg/kg		TBIL	0.55 ± 0.18 mg/dL
COc1cccc(OC)c1-c1cc(C(=O)NC2(C(=O)O)C3CC4CC(C3)CC2C4)nn1-c1ccc(C(=O)N(C)CCOCCOCCN(C)C(=O)[C@H](CCCCNC(=O)[C@H](CC(C)C)NC(=O)C2OC2C(=O)O)NC(=O)CN2CCN(CC(=O)[O-])CCN(CC(=O)[O-])CCN(CC(=O)[O-])CC2)cc1C(C)C.[177Lu+3] (mixture of isomers)		mouse, HT-29 xenograft	72 h post injection, biodistribution	reference: tumour over liver uptake	tumour-to-liver ratio	2.05
CCCCN1C(=O)c2cccc3c(NCCCCCCCCN4CCOCC4)ccc(c23)C1=O		dioxane			absorption maximum	428 nm
CN(O)C(=O)CCC(=O)NCCCN(CCCCN(CCCNC(=O)CCC(=O)N(C)O)C(=O)CCC(=O)N(C)O)C(=O)CCC(=O)N(C)O.[89Zr]		mouse, liver	24 h		tracer uptake	0.04 %ID/g
COc1cccc(OC)c1-c1cc(C(=O)NC2(C(=O)O)C3CC4CC(C3)CC2C4)nn1-c1ccc(C(=O)N(C)CCOCCN(C)C(=O)[C@H](CCCCNC(=O)[C@H](CC(C)C)NC(=O)C2OC2C(=O)O)NC(=O)CN2CCN(CC(=O)[O-])CCN(CC(=O)[O-])CCN(CC(=O)[O-])CC2)cc1C(C)C.[177Lu+3] (mixture of isomers)		mouse, HT-29 xenograft	24 h post injection, biodistribution	reference: tumour over liver uptake	tumour-to-liver ratio	3.37
C=CC(=O)N1CCCC(n2c(=O)c3ncccc3n(Cc3ccc(Oc4ccccc4)cc3)c2=O)C1 (stereo not drawn)		male BALB/c mouse, plasma	oral, 200 mg/kg, 1 h		concentration	21100 ng/mL
Cc1noc(C)c1Cn1cc(N2C(=O)CN(Cc3cccc(OS(=O)(=O)O)c3)C2=O)cn1		Sprague-Dawley rat, male	oral, 100 mg/kg of parent drug, 8 h		plasma concentration	3760 ng/mL
CCCCN1C(=O)c2cccc3c(NCCCCCCN4CCOCC4)ccc(c23)C1=O		methanol			absorption maximum	444 nm
Cc1cc(-c2ccc(C(=O)[C@@H]3CCCC[C@H]3C(=O)Nc3cnn4c3C(=O)NCC4)cc2)[nH]n1		human, urine	oral, 200 mg, 192-216 h	reference: dose	radioactivity recovery per interval	< 0.01% and 0.01%
Nc1ccc(-c2ccc(F)cc2)cc1NC(=O)C1CCOCC1		C57BL/6 mouse, male, plasma	intraperitoneal, 10 mg/kg		absorption rate constant	6 h⁻¹
CC(=O)N[C@H](CC(=O)O)C(=O)N[C@H](Cc1c[nH]c2ccccc12)C(=O)N[C@H](Cc1ccccc1)C(=O)N[C@H](CCCCN)C(=O)N[C@H](C)C(=O)N[C@H](Cc1ccccc1)C(=O)N[C@H](Cc1ccc(O)cc1)C(=O)N[C@H](CC(=O)O)C(=O)N[C@H](CCCCN)C(=O)N[C@@H](C(=O)N[C@H](C)C(=O)N[C@H](CCC(=O)O)C(=O)N[C@H](CCCCN)C(=O)N[C@H](Cc1ccccc1)C(=O)N[C@H](CCCCN)C(=O)N[C@H](CCC(=O)O)C(=O)N[C@H](C)C(=O)N[C@H](Cc1ccccc1)C(N)=O)C(C)C		high-risk statin-treated subjects with CHD, plasma	oral, dose not given, median, doses pooled		Cmax	5.69 ng/mL
CCCCN1C(=O)c2cccc3c(NCCCCCCCCCCN4CCOCC4)ccc(c23)C1=O		dioxane			absorption maximum	428 nm
Cc1nc(N)nc2c1C(=O)N[C@@H](c1ccc(F)cc1-c1cccc(O[11CH3])n1)C2	ex vivo biodistribution	mice, MDA-MB-231 subcutaneous xenograft, lungs	60 min post-injection, baseline, vehicle pre-treatment		tracer uptake	2.1 ± 0.3 %ID
O=Cc1cc(OCc2ccccc2)ccc1B(O)O	chemical stability, HPLC-MS	borate buffered saline	pH 10.2, no N-acetyl-lysine		degradation rate constant	0.1 h⁻¹
Cc1cc(Cl)cc(S(C)=NC#N)c1NC(=O)c1cc(Br)nn1-c1ncccc1Cl (stereo not drawn)	potentiometric				pKa	8.44
CCCCN1C(=O)c2cccc3c(NCCCCN4CCOCC4)ccc(c23)C1=O		dioxane			absorption maximum	425 nm
Cc1c(Cc2cncc(O[C@H](C)C(=O)O)c2)c2ccc(C(=O)N[C@@H](C)c3ccc(C(C)(C)C)cc3)cc2n1CC1CCC1	metabolic stability	mouse, liver microsomes			half-life	0.727 h
CC(C)(O)c1ncc([S@](N)(=O)=NC(=O)Nc2c3c(cc4c2CCC4)CCC3)s1	measured: nervous system disorders	healthy human subjects	oral, dose not given, all active doses		share of subjects with TEAEs	31%

A few entries again:
Compound	assay	test system	conditions	scale	endpoint	result
CCCCN1C(=O)c2cccc3c(NCCCCCCCCCCN4CCOCC4)ccc(c23)C1=O		dioxane			absorption maximum	428 nm
Cc1nc(N)nc2c1C(=O)N[C@@H](c1ccc(F)cc1-c1cccc(O[11CH3])n1)C2	ex vivo biodistribution	mice, MDA-MB-231 subcutaneous xenograft, lungs	60 min post-injection, baseline, vehicle pre-treatment		tracer uptake	2.1 ± 0.3 %ID
O=Cc1cc(OCc2ccccc2)ccc1B(O)O	chemical stability, HPLC-MS	borate buffered saline	pH 10.2, no N-acetyl-lysine		degradation rate constant	0.1 h⁻¹
Cc1cc(Cl)cc(S(C)=NC#N)c1NC(=O)c1cc(Br)nn1-c1ncccc1Cl (stereo not drawn)	potentiometric				pKa	8.44
